Assay results from different studies.
Numbered parts are unrelated; each lists some results of a single study. Changes are numbered by the printed parent chain.

Study 1 — technique: protein-binding microarray; molecule type: double-stranded DNA, one strand shown; medium: in vitro; concentration: 2540 nM top; setting: 60-bp whole probe; added: salmon DNA 0.4 mg/ml; reference: random background probes; reading: higher = stronger binding; all sequences stand within: GCCTAGCAC … GTCTTGATTCGCTTGACGCTGCTG
Target: Interferon regulatory factor 3, full length, phosphomimetic (IRF3, Homo sapiens, UniProt Q14653, residues 1-427, S386D/S396D/S398D/S402D/T404D/S405D)
Residues (chain): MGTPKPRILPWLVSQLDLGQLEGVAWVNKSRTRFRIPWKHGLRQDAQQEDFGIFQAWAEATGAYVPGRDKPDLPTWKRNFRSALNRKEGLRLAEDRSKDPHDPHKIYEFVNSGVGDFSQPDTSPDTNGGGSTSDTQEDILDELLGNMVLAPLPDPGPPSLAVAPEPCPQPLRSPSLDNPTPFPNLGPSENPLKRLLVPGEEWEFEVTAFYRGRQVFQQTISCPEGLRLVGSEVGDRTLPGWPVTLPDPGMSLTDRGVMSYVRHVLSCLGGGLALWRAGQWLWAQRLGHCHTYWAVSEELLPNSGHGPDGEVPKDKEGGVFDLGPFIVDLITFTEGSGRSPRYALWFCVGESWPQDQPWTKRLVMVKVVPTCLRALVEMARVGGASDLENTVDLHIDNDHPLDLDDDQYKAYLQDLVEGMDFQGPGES
| Oligonucleotide | fitted relative affinity [z-score] |
| --- | --- |
| TTAGGTTTCCTCCTCCTTTAGTGCTAG | 4.4 |
| AAGGTAGCACTTCACAGCAAGTGCTAG | -0.00556 |
| TTAGGACTGGGGACTGGTTTAGTGCTA | -0.905 |
| GACGGACTGGACACTGGGGAAGTGCTA | -0.629 |
| GACGGTCTGCTTTTCCTGACGTGCTAG | 0.231 |
| TTAGGTATCGGACTGAGTTAGTGCTAG | 1.18 |
| TCCTCTTTACTGCTCCACACGTGCTAG | 1.28 |
| TCATGTATATATTTTAAACTGTGCTAG | 0.0271 |
| GACGATATCAGCCTCGAGACGTGCTAG | -0.105 |
| TCATCTCCGGGGTCTGTGACTGTGCTA | 0.113 |
| GACGGTCCCCTTTTCCTGACGTGCTAG | 2.6 |
| GACGGTATCCTTCTCCTGGCGTGCTAG | 7.43 |
| TCATGTCTGTGTCACAGACTGTGCTAG | 0.295 |
| GACAGTTTCGGTTCCGGGACGTGCTAG | 11.2 |
| TTCGAACTGGGGTATCGATTAGTGCTA | -0.063 |
| TTAGGTATCGGGAGTGGGTTAGTGCTA | 0.28 |
| GACGATCTCAGTATCGGGACGTGCTAG | 1.44 |
| GACGGTTCCGTTTTCGGGACGTGCTAG | 5.43 |
| GACGGTTTCGGTCTCGGGAGGTGCTAG | 8.89 |
| GGCGGTCTCGGACTGGGGACGTGCTAG | -0.242 |
| AACTTGGCAGGAGCGAATGGGTGCTAG | -0.338 |
| TTAGGTTTCGACTTTCGCTTAGTGCTA | 3.31 |
| TCATTGGTTGAACATGAACTGTGCTAG | -0.322 |
| TTAGGTCTACTTTTCCTTTAGTGCTAG | 1.78 |
| TTAGGTATCGGTATCGCTTAGTGCTAG | 4.57 |

Study 2 — technique: DHFR PCA, deep sequencing; medium: yeast; added: (+)-ABA 1.4 µM; reference: wild-type fitted maximum; reading: higher = stronger binding
Target: ABI1, truncated, D143A, DHFR fusion (Arabidopsis thaliana)
Setting: methotrexate growth selection, single substitutions
Parent: PYL1, truncated, DHFR fusion (Arabidopsis thaliana); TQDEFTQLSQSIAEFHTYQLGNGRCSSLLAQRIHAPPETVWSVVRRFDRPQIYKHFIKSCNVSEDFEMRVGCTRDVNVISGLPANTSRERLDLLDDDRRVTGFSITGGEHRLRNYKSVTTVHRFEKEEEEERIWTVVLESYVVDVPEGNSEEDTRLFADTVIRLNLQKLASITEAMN
| Change | relative binding score |
| --- | --- |
| T39P | 9.9% |
| F47L | -0.919% |
| G71F | -10.3% |
| R163I | -25.9% |
| N149D | 10.2% |
| D96M | 1.9% |
| V76S | -7.32% |
| M68A | 12.5% |
| S171V | 43.6% |
| R123E | 70.8% |
| F56I | -8.15% |
| H110P | 41.6% |
| E128F | 47.8% |
| C60E | 6.21% |
| A170M | 13.8% |
| R24H | 19.9% |

Study 3 — target: CCND2, cyclin fold, Cln2 fusion (human); technique: yeast growth competition, sequencing; medium: yeast; setting: weak parent motif; reference: not given; reading: higher = stronger binding
Parent: ORC1 docking peptide (human); PRARKRLELGNLG
| Change | normalised enrichment score |
| --- | --- |
| R4T | 0.0241 |
| N11K | 0.189 |
| G13Y | -0.224 |
| R6T | 0.404 |
| G10E | 0.408 |
| K5Q | 0.206 |
| R6S | -0.0684 |
| E8Y | 0.307 |
| A3D | 0.196 |
| A3E | 0.495 |
| R2T | 0.407 |
| A3K | 0.192 |
| A3Y | 0.483 |
| G13W | -0.591 |
| E8A | 0.275 |
| L9C | 0.26 |
| L7F | -0.183 |
| L7H | -0.201 |
| G13R | -0.0374 |
| L9F | 0.227 |
| L9Q | 0.137 |

Study 4 — technique: RNA Bind-n-Seq; molecule type: RNA; medium: in vitro; concentration: 365 nM; reference: no-protein control; reading: higher = stronger binding
Target: RNA binding protein fox-1 homolog 2, RRM domain, GST-SBP tag (RBFOX2, Homo sapiens, UniProt O43251-10, residues 100-194)
Setting: natural RNA segment, single round, ends assumed
All sequences stand within: GGGAGUUCUACAGUCCGACGAUC … UGGAAUUCUCGGGUGCCAA
Construct (chain): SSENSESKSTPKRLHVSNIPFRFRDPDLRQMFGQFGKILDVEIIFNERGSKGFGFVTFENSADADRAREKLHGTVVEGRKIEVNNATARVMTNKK
| Oligonucleotide | RBNS enrichment (R) |
| --- | --- |
| UCCAGUGGCUUCUCCUUUCUGUCAAGACUUAGCCCCGCUGAGAUGCCCUUCUGCUCCAGCUUGCUGGAUGUUACCUGUCCUCUUCCCUCCACAAGUCUUGGCCCUUAACC | 0.395 |
| GAUUGGAUUUUUGUAUAAAAAGAUAAUGCUGUCAAACGGGAACUGACCUUUAUUGAAUCUGAAAUGAUACAUAGCUGUGUGUGUAUAUAUAUUUUUUAAAAAUAGGUUCA | 0.657 |
| CAUUCUAUCUGGGUGAACACCUUCAUUCUGGUAGAGCACCUAACACUUUAACAGCUGUUCCCGAAAGGGUUAGGACCAACUGCAAGUUAAUGUGGGUUGUAAAUGUUCCC | 0.266 |
| AGGCCCUUUGGCGUGGUACCAACCAGAUAAUGACUGCAUCAGGAUGAAAGCUGCUGAACUCGGCAUGGCGCCUCCUCUUCUCUGUUGGGAUGAGUGACUUUAUUGAUUUG | 1.52 |
| AUCAAAGAGUGCUAAGAAAAUUGCGAAGAAGCCUUACUGCUUACACCAGAGAGCUCAGGGCAGCUUUAUCUUCCAGGUUUAUCUAAAACUAUCUGUGUUGGGCUUCCCUG | 0.368 |
| GAAAGCUAGUUUUGAGAAAUUAUUCAGAAGCCUUGUUAUUUUAAAAAUGAAAUAUUUCAAAGACUGAAUAUUUUCAAAGAAAAUGAAUAAUUCAUUGCCCUUGUGAUUUA | 0.619 |
| CCUGCCUAAGCAGGGUGGGGGCAGAGCCAUGACAUUUUUGGUUUAAAGGAGCCUUCUCAUCUCUGGCCGAGAACACUGCUGGGCUCCCAGGUAGCUGAAGGCCUCAGCCC | 0.312 |
| CUGCCGUAGCUUCAGCCAGGCAAGAAAGCUUCCUUCAACCUGCAUAGCCGGUGGGUGAGGAGAUUCCCACCUUCCAUAGCCUCCAAACAUGUUCCCAAGGCCCCACUUUC | 0.633 |
| AAAUGUCCCAAACAUUUAAGCUAGAGUUAGUUCUUGAUGUUGUAUACCUAAGCCCAUAAUCGAGCUAGUAUCUUGGAUGGUAUACAACCAAGAACCAGCUAAACAAUUAG | 0.389 |
| UUCAAAGUAGUUUUUUUUUUUUCAUUCUUUCCCAUAAGAAAAGACAAAAUAGACAAGGUCACUUAUCCUGCCAUAUUGUCUCUUUGUAUAUAAAGAUGUUCAUAUUUUAG | 0.629 |
| UGGGUAAAGUGAUGAGCCAUGUUUAUCUACUGAUCAGCUUCAUCAAAUUCGCAUCUAACUGAAUGGUAGUGUCUUUAAAAUGUGCUGUUUUAUUUUAAAAAUAAUGCAUG | 0.747 |
| AGCCUGUGAGCCUAGGAGACUGUGUGUGUGAGGUAAAGGGUGUAGUGGUGGCCUGGGCUGCUGAUGGAGGGGAAGCACCAGUAUCUAGGUGUCUUUGGUAGGGGUGUAUU | 2.77 |

Study 5 — technique: protein binding microarray; molecule type: double-stranded DNA, one strand shown; medium: in vitro; concentration: not given; reference: not given; reading: higher = stronger binding
Target: Histone acetyltransferase KAT6A, winged helix 2, GST fusion (KAT6A, Homo sapiens, UniProt Q92794, residues 85-181)
Setting: 8-mer, flanks averaged, mean of 2 arrays, mostly near background
Residues (chain): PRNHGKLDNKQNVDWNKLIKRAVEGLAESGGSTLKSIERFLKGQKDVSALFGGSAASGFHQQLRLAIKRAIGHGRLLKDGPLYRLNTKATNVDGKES
| Oligonucleotide | E-score |
| --- | --- |
| AGACGGTG | -0.299 |
| GTGCCCTA | -0.174 |
| GAGGAGGC | -0.0273 |
| GATTGGCA | -0.00865 |
| ACACAAAA | 0.194 |
| CTAGTCTC | -0.234 |
| CGTTAAAA | -0.096 |
| CTCCCTGC | 0.0875 |
| AACCGCAG | 0.111 |
| CATATACC | -0.133 |
| ACACTCAC | 0.0984 |
| CCATTCTC | -0.0869 |
| ACCAGCAT | -0.0859 |
| ACTTAGTG | -0.00468 |
| ACTGACGA | -0.0236 |
| CGTGGACC | -0.0264 |
| GGCCGGCC | 0.161 |
| AGAGAGGC | -0.131 |
| CAATAAAG | 0.0515 |

Study 6 — technique: universal PBM; molecule type: double-stranded DNA, one strand shown; medium: in vitro; concentration: not given; reading: higher = stronger binding
Target: Sal-like protein 4, full length isoform B (SALL4, Homo sapiens, UniProt Q9UJQ4-2, residues 1-616)
Setting: 8-mer, flanks averaged, mean of replicates
| Oligonucleotide | E-score |
| --- | --- |
| ACTGCGGC | -0.301 |
| CCCGCACG | -0.34 |
| AATTTGCT | 0.266 |
| CCGGACAG | -0.311 |
| ATCAGTGC | -0.0506 |
| ACCTGAGG | -0.225 |
| ACTAGGAC | -0.0269 |
| AGGCATCC | -0.0546 |
| ACAAATCC | 0.126 |
| CTGATTTA | 0.185 |
| TCAGGCCA | -0.171 |
| ATGAGGTA | 0.178 |
| AGTTCCTA | 0.0935 |
| AAGATGAG | -0.0566 |
| TGCAAGAA | 0.045 |
| TGATAGAA | 0.195 |
| AAACAATC | 0.231 |
| GATGATAC | 0.101 |
| CGCAGCAG | -0.143 |
| AAGATTCA | 0.152 |
| ACCAGGAG | -0.227 |

Study 7 — target: BATF3, bZIP domain (human); technique: DHFR protein complementation; medium: yeast; reference: wild-type JUN-FOS pair; reading: higher = stronger binding
Setting: single substitutions, most at no-binding floor
Parent: JUN, bZIP domain (human); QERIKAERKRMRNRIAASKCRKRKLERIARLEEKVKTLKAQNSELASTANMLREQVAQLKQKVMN; partner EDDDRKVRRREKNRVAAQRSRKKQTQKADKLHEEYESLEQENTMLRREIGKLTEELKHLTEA
| Change | binding fitness [natural log] |
| --- | --- |
| L45R | -0.515 |
| A29M | -0.0551 |
| K39M | 0.0363 |
| M51W | 0.165 |
| L45S | -0.453 |
| A57R | 0.171 |
| K36G | 0.226 |
| M51S | 0.254 |
| Q55N | 0.137 |
| K34E | 0.203 |
| S43R | 0.286 |
| K34N | 0.214 |
| S43I | 0.198 |
| S43T | 0.263 |
| R30S | 0.311 |
| V35N | 0.0724 |
| K36W | 0.146 |
| A57Q | 0.172 |
| R30I | 0.102 |
| A49M | 0.147 |
| A49G | -0.0343 |
| M51R | 0.224 |
| K36N | 0.163 |
| N42K | 0.114 |

Excerpt of the above (study 7):
| Change | binding fitness [natural log] |
| --- | --- |
| R30S | 0.311 |
| K39M | 0.0363 |
| S43I | 0.198 |
| A57R | 0.171 |
| A29M | -0.0551 |
| V35N | 0.0724 |
| S43R | 0.286 |
| R30I | 0.102 |
| K36W | 0.146 |
| L45S | -0.453 |
| A57Q | 0.172 |
| L45R | -0.515 |
| N42K | 0.114 |
| K34E | 0.203 |
| S43T | 0.263 |
| K36N | 0.163 |
| K36G | 0.226 |
| M51W | 0.165 |
| M51R | 0.224 |
| Q55N | 0.137 |
| K34N | 0.214 |
| A49M | 0.147 |
| A49G | -0.0343 |
